Experimental data collected from several papers.
Each numbered part is a random draw from the data of one study; scales do not carry over between parts.

Block 1
Target: Prothrombin, mature alpha-thrombin (F2, Homo sapiens, UniProt P00734)
Method: aptamer microarray, sandwich
Molecule type: DNA with 2'F-ANA
Matrix: in vitro
Concentration: 200 nM
Setting: whole 15-mer aptamer, many near background
Together with: Cy3 exosite-II aptamer, 400 nM
Direction: higher = stronger binding
Oligonucleotide: GGTTGGTGTGGTTGG
For `2'F-ANA at 1 3 4 6 8 10 12 14 15`, “mean fluorescence intensity” read 51.2 a.u.
Under “mean fluorescence intensity”, `2'F-ANA at 1 4 5 6 8 10 12` is recorded as 50.3 a.u.
`2'F-ANA at 2 4 6 7 9 12 15` — result for “mean fluorescence intensity”: 409 a.u.
`2'F-ANA at 2 4 7 8 9 12 13 14` — result for “mean fluorescence intensity”: 123 a.u.
Under “mean fluorescence intensity”, `2'F-ANA at 1 2 3 5 7 9 13 14` is recorded as 46.4 a.u.
`2'F-ANA at 2 7 8 10 11 12 14 15`: “mean fluorescence intensity” 88.1 a.u.
For `2'F-ANA at 1 5 6 7 10 11 12 13 14 15`, “mean fluorescence intensity” read 51.2 a.u.
`2'F-ANA at 1 2 6 7 8 9 10 11 12 14 15`: “mean fluorescence intensity” 72.3 a.u.

Block 2
Target: RING finger protein unkempt homolog, zinc fingers 1-6, GST-SBP tag (UNK, Homo sapiens, UniProt Q9C0B0, residues 30-357)
Chain of UniProt Q9C0B0 (30-357, looked up): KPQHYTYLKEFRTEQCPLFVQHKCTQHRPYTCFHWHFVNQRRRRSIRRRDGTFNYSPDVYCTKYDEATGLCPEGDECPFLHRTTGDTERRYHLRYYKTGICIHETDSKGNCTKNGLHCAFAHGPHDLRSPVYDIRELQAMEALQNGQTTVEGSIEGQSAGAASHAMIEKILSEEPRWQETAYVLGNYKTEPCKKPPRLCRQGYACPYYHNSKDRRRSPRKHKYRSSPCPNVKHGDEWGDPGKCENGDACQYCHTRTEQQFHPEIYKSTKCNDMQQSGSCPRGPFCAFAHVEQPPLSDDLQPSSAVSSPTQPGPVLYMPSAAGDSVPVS
Method: RNA Bind-n-Seq
Molecule type: RNA
Matrix: in vitro
Concentration: not given
Setting: RNA with constant flanks, ends assumed
Baseline: input RNA pool
Direction: higher = stronger binding
With `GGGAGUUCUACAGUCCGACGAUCUUCUGGUUUCCUUGGAGAAAAGCUCUGCUGCCCUGAUUAUGAACUCUAUAAUAGAGUAUACCGCUUUUGUACCUUUUUUACAGGAAGGUGACUUUCUGUAAUCAUGUGAUGUAUAUUAAACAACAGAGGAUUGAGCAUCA` the bound/input enrichment was 0.643 ratio.
For `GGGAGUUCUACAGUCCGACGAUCGUGAGAGGCGAGAAGGAGGCUCUAGACCUGCGAAAGGAAAAAGAAACCCUUGAGAGGAAACUCCGAGAUGCAAGUAAGGAAUUGGAGAAAAACACUAACAAAAUUAAGCAGCUGUCUCAGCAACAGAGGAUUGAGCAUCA`, the bound/input enrichment was 0.343 ratio.
For `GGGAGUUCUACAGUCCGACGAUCUAAACAUUGUAUGCAUUUUGAUUUUUCCUACUUUAAGAAAAUAAAAUAAUUUAAUUUUACAUCCGAUUCCACGUUAGAUUUGGUUUGAAAAACUAAAAUUUCAGAUUUCUGAGGAUAUACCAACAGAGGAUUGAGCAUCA`, the bound/input enrichment was 0.666 ratio.
`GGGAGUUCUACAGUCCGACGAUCAUCACCAUGUUGGAAGCAGCACUGGGACUUGAGCGAGCUCACAUGGGAAUGUUUACUGAAUCCGCUAUUCUAUACUCUAAAUUUAAGCCUCAGAAAAUGAGGGAGCACCUGGAGCUGUUCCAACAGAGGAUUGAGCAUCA` gave a bound/input enrichment of 0.227 ratio.
With `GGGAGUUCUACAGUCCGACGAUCGAACCUGCUGAUGCAUCAGUAGUCCUGUGUAAAGAGCCCACCGCCUUUGAGGUUCCUCAGCUCCGUGUUUGUGGAGGUUCUGAAGACGCUGACAUAUUAUCCAGUUCAGGUCAUGACACACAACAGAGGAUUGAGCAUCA` the bound/input enrichment was 0.153 ratio.
With `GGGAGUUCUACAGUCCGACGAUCCUCAAUGCAUUGACCAAGCAUGUCUCACCACUGAUAGGACGUUUUGUUCCCUUUGCUGCCGCCGCUGCUGCUAAUUGCAUUAAUAUUCCAUUAAUGAGGCAAAGGGAACUCAAAGUUGGCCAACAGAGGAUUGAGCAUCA` the bound/input enrichment was 0.135 ratio.
For `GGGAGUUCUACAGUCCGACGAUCGCAGUGGAAUGCAGUUAUAUUUGGACCAGAAGGGACACCUUUUGAAGAUGGUACUUUUAAACCCGUAAUAGAAUUUUCUGAAGAAUAUCCAAAUAAACCACCAACUGUUAGGUUUUUAUCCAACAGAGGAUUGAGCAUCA`, the bound/input enrichment was 1.97 ratio.
For `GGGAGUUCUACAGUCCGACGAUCUUUCUUGUUUUUCUUUCUCCCCCCCCCCCCCUUCAGUUAACUACUUUUUAAUUGCAAUUCCCGGUAAUUGUGCAUCGUGAUGUGAUUGCUUGGCUAUUGUCUGAAUAUUUCCUUUUAAUUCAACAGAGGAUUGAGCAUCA`, the bound/input enrichment was 2.04 ratio.

Block 3
Target: Histone acetyltransferase KAT6A, winged helix 2, GST fusion (KAT6A, Homo sapiens, UniProt Q92794, residues 85-181)
Method: protein binding microarray
Molecule type: double-stranded DNA, one strand shown
Matrix: in vitro
Concentration: not given
Setting: 8-mer, flanks averaged, mean of 2 arrays, mostly near background
Baseline: not given
Direction: higher = stronger binding
Target sequence (chain): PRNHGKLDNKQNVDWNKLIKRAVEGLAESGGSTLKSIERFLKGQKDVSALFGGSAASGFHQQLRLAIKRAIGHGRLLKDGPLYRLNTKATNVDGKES
With `AAGGCGAA` the E-score was -0.0513.
`TGGCTGAA` gave an E-score of 0.101.
`ACACACAA` has an E-score of -0.0146.
The E-score of `CTAGTTCA` is reported as -0.0614.
`TCTTTCAA` gave an E-score of 0.0146.

Further values, each from its own experiment
The fold induction of `PhoQ, residues 284 288 289 292 302 303 SSCLAV` is reported as 5.3 (PhoP, residues 12 14 15 18 19 LYHSL (Escherichia coli, UniProt P23836); Sort-seq, refers to: YFP reporter; E. coli; PhoQ-PhoP variant library, together with: 10 µM Mg2+; baseline: high Mg2+ state, higher = stronger signaling).

Some of these lines once more (block 3):
`TCTTTCAA` gave an E-score of 0.0146.
The E-score of `CTAGTTCA` is reported as -0.0614.
`TGGCTGAA` gave an E-score of 0.101.
